Measured values of several laboratories.
Each numbered part is a random draw from the data of one study; scales do not carry over between parts. Changes are numbered by the printed parent chain.

Study 1 — technique: RNA Bind-n-Seq; form: RNA; matrix: in vitro; tested at: 200 nM; notes: whole 134-nt RNA, ends assumed; together with: 150 mM KCl; relative to: input library; direction: higher = stronger binding
Target: Ras GTPase-activating protein-binding protein 1, full length (G3BP1, Homo sapiens, UniProt Q13283)
Chain of UniProt Q13283 (whole entry, looked up): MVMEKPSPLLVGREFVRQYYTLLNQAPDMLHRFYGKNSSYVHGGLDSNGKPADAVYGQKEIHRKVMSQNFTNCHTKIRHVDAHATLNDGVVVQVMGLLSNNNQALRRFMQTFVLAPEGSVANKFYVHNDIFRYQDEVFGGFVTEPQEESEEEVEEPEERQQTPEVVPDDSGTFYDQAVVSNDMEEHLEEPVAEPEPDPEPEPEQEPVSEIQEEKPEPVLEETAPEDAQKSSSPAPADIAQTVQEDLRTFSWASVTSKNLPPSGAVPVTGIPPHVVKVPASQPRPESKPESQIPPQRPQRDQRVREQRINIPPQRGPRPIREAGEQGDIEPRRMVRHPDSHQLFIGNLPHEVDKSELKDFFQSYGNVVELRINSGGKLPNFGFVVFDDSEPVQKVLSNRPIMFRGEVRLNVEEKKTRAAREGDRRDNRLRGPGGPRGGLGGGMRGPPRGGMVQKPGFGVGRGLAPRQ
Shared flanks, not repeated: GGGAGUUCUACAGUCCGACGAUC … UGGAAUUCUCGGGUGUCAAGG
| Sequence | log2 enrichment |
| --- | --- |
| AAGUCCUGUGCUACACAUCGUAUGUACCGAAUCGGAAAAAGGAAAAAAAGGUUUGGAAAGUAUUAUGUUACGCCGUUCGGAUCUGCACUU | -1.83 |
| ACCAAACAGGUGGGCAUCUUUGGGAAGUGGGGCAAGGGGGGGAUAGGGAGGGGGGUAACACUUUGGGAACAGGUGGUCCCAGGUCGUUUC | 1.3 |
| UCAAGUCCUGUGCUACACAUCGUAUGUACCGAAUCGGAGGAAAGGAAAAAAAGGAAAGUAUUAUGUUACGCCGUUCGGAUCUGCACUUCC | -0.969 |
| UGGCCCUGGUGGCAUGCGGGGAUGAAGAGGUGGCCUCAUGGAUCGUGGUGGUCCCGGUGGAAUGUUCAGAGGUGGCCGUGGUGGAGACAG | 0.483 |
| CUCAAGUCCUGUGCUACACAUCGUAUGUACCGAAUCGGCCGGGGCCGGCCGGGAAAGUAUUAUGUUACGCCGUUCGGAUCUGCACUUCCA | -0.434 |
| UCAAGUCCUGUGCUACACAUCGUAUGUACCGAAUCGGGAAAGGGAAAGGGAAAGGAAAGUAUUAUGUUACGCCGUUCGGAUCUGCACUUC | -0.701 |
| UCCUGUGCUACACAUCGUAUGUACCGAAUCGGCCCCCGGGGCCCCCGGGGCCCCCGGGGAAAGUAUUAUGUUACGCCGUUCGGAUCUGCA | -1.11 |
| AAGUCCUGUGCUACACAUCGUAUGUACCGAAUCGGAAAAAAAGGAAAGGUUUUUGGAAAGUAUUAUGUUACGCCGUUCGGAUCUGCACUU | -1.62 |
| CACAGACAACACGCACCCACACUGACACAGAGGGAAGGGGUUGGGAUGGGGACAGGGUGCACAGCAGGGCGGGGUAGGACCCCAGCCCCU | 2.01 |
| AGUCCUGUGCUACACAUCGUAUGUACCGAAUCGGAAAAAGGAAAAAAAGGAAAAAGGAAAGUAUUAUGUUACGCCGUUCGGAUCUGCACU | -1.14 |

Study 2 — technique: RNA Bind-n-Seq; form: RNA; matrix: in vitro; tested at: 365 nM; relative to: no-protein control; direction: higher = stronger binding
Target: RNA binding protein fox-1 homolog 2, RRM domain, GST-SBP tag (RBFOX2, Homo sapiens, UniProt O43251-10, residues 100-194)
Notes: natural RNA segment, single round, ends assumed
Shared flanks, not repeated: GGGAGUUCUACAGUCCGACGAUC … UGGAAUUCUCGGGUGCCAA
Residues (chain): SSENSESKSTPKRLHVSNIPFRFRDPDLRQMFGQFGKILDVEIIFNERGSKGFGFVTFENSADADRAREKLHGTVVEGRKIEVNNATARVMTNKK
| Sequence | RBNS enrichment (R) |
| --- | --- |
| AAAAAAACAAGGAAAAAAAAUAAUGCUUCAACGCUUUUAAAACAGCAAGAUACUAGUUCUUUGAUACUUUGAGAGGCGCUUUGAUUACCCCGAUUGAAGUCUCUGAAACU | 0.474 |
| AGGUUGCAUUCUCCACCAAGGGAGUUAACCUACCUGAACUAAGUAGAAAUGCCAGUCUUCCACUACCCCCUCCCUGCCAUCUUUUCUUCUGCUACUUUGGGGAGUUGAUG | 0.842 |
| UGAGCAAGUCAGAAGUUACUCUCAUCAGUCGUUCAUGGUCACAACCUGAGGUACUCUGCUGAGUGGGCAAGGCUGAAGAAGAGGCCUGUGGAAUGCAGCAUUACCUGCUG | 0.349 |
| CCUGGGGAAACCCUUGGGGAAAAAAAAACAGUUCCUAAGUAGUGUGCCUGUCAACUUUGCAGACUGCUUUUGGCUUCUGGAUGCGCUCCUUCAGUACACAUCCUAUGGCG | 0.263 |
| UAGUUUACUAAUAGCUGCUCAGUUUGUCAGCUGAUAGUCUGAAUACUAUCAAAAACUAAGAACAUAGUUGAAGCAUGCUUCCUGAAAAUUAACUACAUUAGAAACUGACA | 1.7 |
| CCUGGGCAUACGCCGCCUCCAGCUGCUCAUAACCACCGAUCUGGUUGAAAGCUGGAGGGUGGGGCAGAGUGGGUUGGUUCUGGGUGGUCCUGACUCCCAGGAUCCUCCUA | 0.254 |
| CUUGUACCGAAGCCUCAAGCUGGAACACUAUGACCACGAUGAUGUCAGGCCGGGCGGCCAGCCUUGCACUACUGACCACGAUGAUGCCAGGCUGGGCGGCCAGCCUUGCA | 0.183 |
| AUCAUAGGAAUAAAAUUAUGGGAUCUCAACAAAGGGUCGAGGGUUUGAGGCUUAAACAAGCCAACAUAUGAAUAUAUGUUUUGUCUCGCUAUACUGCACUUACGCUAUCC | 0.272 |
| GUUGAAGAGCUUUUCAUGUAUAGUAAACCAUGAUUCUGAGAGAAUCGAUUCUCCAAGGAGUCCUUCACUGGCCUAAACAUUCUGUAAUGUUGGGCAUUCAAGGGAAUGGA | 0.279 |
| UUCUUUCCUUUCCCUUCUCACCUCUUUGCCUCCUUCCCUAAAAUUCGCUGUGGCCCUCGGGGUCAGACUGUUCAUUCUCCAGCAUGAUUGUGCCUUUUAAUUAGAGGUCU | 20.4 |
| CUGUCAAAUGCAGUAGAUGAUGAAAGAAAGGUUGGUAUUAUCAGGAAAUGUUUUCUUAAGCUUUUCCUUUCUCUUACACCUGCCAUGCCUCCCCAAAUUGGGCAUUUAAU | 0.31 |
| CAGGCUCUUGUCUGAACACCGCAGCCCCUCCUUCGCUCCUUCCAGAGCUCAGCAUGUCACGGCAAGGACUGCCGCAUUGGUGAUGGAGGGCCAGCUGAGGGGAAGUUGCU | 19.5 |

Study 3 — technique: protein-binding microarray; form: double-stranded DNA, one strand shown; matrix: in vitro; tested at: not given; direction: higher = stronger binding
Target: Transcriptional repressor CTCF (CTCF, Homo sapiens, UniProt P49711, residues 1-727, full length assumed)
Notes: k-mer, scored over probes, only values ≥0.25
Residues (chain): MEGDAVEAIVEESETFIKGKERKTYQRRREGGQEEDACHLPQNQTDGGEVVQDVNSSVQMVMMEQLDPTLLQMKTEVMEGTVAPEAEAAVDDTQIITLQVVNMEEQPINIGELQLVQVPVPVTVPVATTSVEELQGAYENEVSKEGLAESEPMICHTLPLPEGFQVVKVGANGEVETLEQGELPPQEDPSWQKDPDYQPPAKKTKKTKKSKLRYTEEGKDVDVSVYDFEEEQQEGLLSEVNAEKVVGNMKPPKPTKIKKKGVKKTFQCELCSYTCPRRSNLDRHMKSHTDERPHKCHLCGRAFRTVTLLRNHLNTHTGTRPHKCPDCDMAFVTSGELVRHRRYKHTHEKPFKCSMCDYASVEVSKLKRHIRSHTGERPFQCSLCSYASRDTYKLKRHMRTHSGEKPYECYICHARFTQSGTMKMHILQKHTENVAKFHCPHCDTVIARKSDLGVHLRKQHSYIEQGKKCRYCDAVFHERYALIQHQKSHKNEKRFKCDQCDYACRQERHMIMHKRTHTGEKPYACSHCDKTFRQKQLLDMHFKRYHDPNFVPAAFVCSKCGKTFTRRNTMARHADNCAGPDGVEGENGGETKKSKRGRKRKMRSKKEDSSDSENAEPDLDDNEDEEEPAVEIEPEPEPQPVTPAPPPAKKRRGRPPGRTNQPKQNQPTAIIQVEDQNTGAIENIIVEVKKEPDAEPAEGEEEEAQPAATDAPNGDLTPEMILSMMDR
| Sequence | E-score |
| --- | --- |
| TAATAATA | 0.369 |
| ACATACAT | 0.313 |
| AGAGGGCG | 0.289 |
| TAACGATA | 0.3 |
| ATTATCTA | 0.259 |
| ATTGTTAC | 0.329 |
| ATAAATTC | 0.289 |
| AAAGCTGA | 0.328 |
| AACATACA | 0.263 |
| ATAGATAC | 0.309 |
| ATGTATCA | 0.273 |
| CCACTAGG | 0.473 |
| GCGCATCA | 0.303 |
| TGTTATAA | 0.378 |
| GTATAATA | 0.38 |
| CGCCCACA | 0.282 |
| TGTGATAA | 0.328 |
| AAACGGTA | 0.294 |
| ATTAATTA | 0.278 |
| ACGTACTC | 0.281 |
| ATATAAAT | 0.355 |
| GCAATTGC | 0.282 |
| ATTTAATG | 0.313 |
| AGATAAAT | 0.294 |

Study 4 — technique: DHFR PCA, deep sequencing; matrix: yeast; together with: (+)-ABA 710 µM; relative to: wild-type fitted maximum; direction: higher = stronger binding
Target: ABI1, truncated, D143A, DHFR fusion (Arabidopsis thaliana)
Notes: methotrexate growth selection, single substitutions
Starting sequence: PYL1, truncated, DHFR fusion (Arabidopsis thaliana); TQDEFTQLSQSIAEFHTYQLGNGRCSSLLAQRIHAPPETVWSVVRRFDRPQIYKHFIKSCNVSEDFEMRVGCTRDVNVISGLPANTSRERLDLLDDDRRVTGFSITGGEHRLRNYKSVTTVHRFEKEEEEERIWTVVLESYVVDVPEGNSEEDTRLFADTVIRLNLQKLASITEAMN; partner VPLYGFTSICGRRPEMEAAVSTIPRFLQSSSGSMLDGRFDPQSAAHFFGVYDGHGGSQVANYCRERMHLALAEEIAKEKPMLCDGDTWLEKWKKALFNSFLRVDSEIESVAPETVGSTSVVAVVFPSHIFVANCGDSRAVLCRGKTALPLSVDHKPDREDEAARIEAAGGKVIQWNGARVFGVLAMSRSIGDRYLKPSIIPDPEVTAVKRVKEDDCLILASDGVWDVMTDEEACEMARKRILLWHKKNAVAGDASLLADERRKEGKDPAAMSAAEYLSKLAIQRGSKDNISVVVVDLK
| Variant | relative binding score |
| --- | --- |
| A13M | 76.9% |
| A175E | 100% |
| E67R | 99.3% |
| E125R | 104% |
| R49S | 97.9% |
| A170Q | 96.6% |
| T6M | 107% |
| K116S | 107% |
| L164Q | 98.6% |
| R99Y | 111% |
| L156V | 102% |
| S9N | 93.9% |
| L94C | 96% |
| E127G | 110% |
| I52G | 96.5% |
| N149T | 90.4% |
| N114C | 86.5% |
| L28H | 77.1% |
| G81R | 48.7% |
| P146H | 51% |
| E64D | 104% |
| L93G | 59.7% |
| N22A | 105% |
| L112I | 63.7% |
| T101E | 38.6% |
